Measurements from different studies.
Protocols differ between the studies behind these lines. ± gives the spread as reported.
B1: human IGBP1; sequence looked up; chain AAEDELQLPRLPELFETGRQLLDEVEVATEPAGSRIVQEKVFKGLDLLEKAAEMLSQLDLFSRNEDLEEIASTDLKYLLVPAFQGALTMKQVNPSKRLDHLQRAREHFINYLTQCHCYHVAEFELPKTMNNSAENHTANSSMAYPSLVAMASQRQAKIQRYKQKKELEHRLSAMKSAVESGQADDERVREYYLLHLQRWIDISLEEIESIDQEIKILRERDSSREASTSNSSRQERPPVKPFILTRNMAQAKVFGAGYPSLPTMTVSDWYEQHRKYGALPDQGIAKAAPEEFRKAAQQQEEQEEKEEEDDEQTLHRAREWDDWKDTHPRGYGNRQNMG
B2: adiponectin; sequence looked up; chain ETTTQGPGVLLPLPKGACTGWMAGIPGHPGHNGAPGRDGRDGTPGEKGEKGDPGLIGPKGDIGETGVPGAEGPRGFPGIQGRKGEPGEGAYVYRSAFSVGLETYVTIPNMPIRFTKIFYNQQNHYDGSTGKFHCNIPGLYYFAYHITVYMKDVKVSLFKKDKAMLFTYDQYQENNVDQASGSVLLHLEVGDQVWLQVYGEGERNGLYADNDNDSTFTGFLLYHDTN
B3: sequence looked up; chain SLKVAPKVKATAAPAGAPPQPQDLEFTKLPNGLVIASLENYSPVSRIGLFIKAGSRYEDFSNLGTTHLLRLTSSLTTKGASSFKITRGIEAVGGKLSVTATRENMAYTVECLRGDVDILMEFLLNVTTAPEFRRWEVADLQPQLKIDKAVAFQNPQTHVIENLHAAAYRNALANPLYCPDYRIGKVTSEELHYFVQNHFTSARMALIGLGVSHPVLKQVAEQFLNMRGGLGLSGAKANYRGGEIREQNGDSLVHAAFVAESAVAGSAEANAFSVLQHVLGAGPHVKRGSNTTSHLHQAVAKATQQPFDVSAFNASYSDSGLFGIYTISQATAAGDVIKAAYNQVKTIAQGNLSNTDVQAAKNKLKAGYLMSVESSECFLEEVGSQALVAGSYMPPSTVLQQIDSVANADIINAAKKFVSGQKSMAASGNLGHTPFVDEL
B4: human alpha-actinin-1; sequence looked up; chain MDHYDSQQTNDYMQPEEDWDRDLLLDPAWEKQQRKTFTAWCNSHLRKAGTQIENIEEDFRDGLKLMLLLEVISGERLAKPERGKMRVHKISNVNKALDFIASKGVKLVSIGAEEIVDGNVKMTLGMIWTIILRFAIQDISVEETSAKEGLLLWCQRKTAPYKNVNIQNFHISWKDGLGFCALIHRHRPELIDYGKLRKDDPLTNLNTAFDVAEKYLDIPKMLDAEDIVGTARPDEKAIMTYVSSFYHAFSGAQKAETAANRICKVLAVNQENEQLMEDYEKLASDLLEWIRRTIPWLENRVPENTMHAMQQKLEDFRDYRRLHKPPKVQEKCQLEINFNTLQTKLRLSNRPAFMPSEGRMVSDINNAWGCLEQVEKGYEEWLLNEIRRLERLDHLAEKFRQKASIHEAWTDGKEAMLRQKDYETATLSEIKALLKKHEAFESDLAAHQDRVEQIAAIAQELNELDYYDSPSVNARCQKICDQWDNLGALTQKRREALERTEKLLETIDQLYLEYAKRAAPFNNWMEGAMEDLQDTFIVHTIEEIQGLTTAHEQFKATLPDADKERLAILGIHNEVSKIVQTYHVNMAGTNPYTTITPQEINGKWDHVRQLVPRRDQALTEEHARQQHNERLRKQFGAQANVIGPWIQTKMEEIGRISIEMHGTLEDQLSHLRQYEKSIVNYKPKIDQLEGDHQLIQEALIFDNKHTNYTMEHIRVGWEQLLTTIARTINEVENQILTRDAKGISQEQMNEFRASFNHFDRDHSGTLGPEEFKACLISLGYDIGNDPQGEAEFARIMSIVDPNRLGVVTFQAFIDFMSRETADTDTADQVMASFKILAGDKNYITMDELRRELPPDQAEYCIARMAPYTGPDSVPGALDYMSFSTALYGESDL
UniProt Q64663, sequence (whole entry, unmodified, looked up): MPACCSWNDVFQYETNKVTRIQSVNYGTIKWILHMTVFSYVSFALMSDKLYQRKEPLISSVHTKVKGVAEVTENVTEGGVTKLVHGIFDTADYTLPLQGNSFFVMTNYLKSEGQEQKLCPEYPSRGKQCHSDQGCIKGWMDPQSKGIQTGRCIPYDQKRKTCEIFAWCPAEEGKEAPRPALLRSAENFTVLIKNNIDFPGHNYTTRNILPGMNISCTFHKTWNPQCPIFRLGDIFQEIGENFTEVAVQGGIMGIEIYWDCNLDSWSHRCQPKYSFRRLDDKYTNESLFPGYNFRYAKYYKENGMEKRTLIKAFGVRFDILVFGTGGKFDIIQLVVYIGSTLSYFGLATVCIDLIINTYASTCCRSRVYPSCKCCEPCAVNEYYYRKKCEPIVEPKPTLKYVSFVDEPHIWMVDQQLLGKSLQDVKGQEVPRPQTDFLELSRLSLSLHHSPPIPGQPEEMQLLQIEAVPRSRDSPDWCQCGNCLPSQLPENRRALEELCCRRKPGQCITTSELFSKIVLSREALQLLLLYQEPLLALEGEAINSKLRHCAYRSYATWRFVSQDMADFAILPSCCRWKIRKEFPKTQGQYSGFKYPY
UniProt P84090, sequence (whole entry, unmodified, looked up): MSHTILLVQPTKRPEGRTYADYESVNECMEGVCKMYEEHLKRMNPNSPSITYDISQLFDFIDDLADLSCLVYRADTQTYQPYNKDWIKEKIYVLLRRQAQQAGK

ATP synthase subunit beta, human
log2 fold change (CYB5R4 knockout human cells; PP4 interaction, 3xFLAG-PP4C IP-MS; concentration not given; relative to: CYB5R4 KO over parental): -0.07

Neuropeptide Y
retention time (RP-HPLC; HALO RP-amide column; 25 µM, formic acid/acetonitrile, 25 min gradient): 8.41 min

CXCL12
time to ERK1/2 phosphorylation (human neural stem cells; western blot, item: phospho-ERK1/2 Tyr202/Tyr204; 12.5 nM): 2 to 5 min

B1 (human IGBP1)
log2 fold change (CYB5R4 knockout human cells; PP4 interaction, 3xFLAG-PP4C IP-MS; concentration not given; relative to: CYB5R4 KO over parental): -0.28

BzATP
normalized current (P2X purinoceptor 7 (P2rx7, Rattus norvegicus, UniProt Q64663, Q143A/R125A); ion current, agonist, two-electrode voltage clamp; Xenopus laevis oocytes; 0.14 µM; relative to: highest concentration response): 0

ELDVIYLLY
GFP-positive cells (Jurkat expressing engineered TCR; NFAT-eGFP reporter, fluorescence microscopy; peptide; concentration not given, HLA-A*01:01 on EL4 cells): 0.683%

FNA / CGLSGLGVA-NH2 ([18F]FNA-labelled, C-amide)
tissue uptake (ex vivo gamma counting; peptide, glioblastoma mouse model, liver; 60 min post injection, with: 500-fold excess CooP blocking): 0.6 %ID/g

human epiplakin
log2 fold change (CYB5R4 knockout human cells; PP4 interaction, 3xFLAG-PP4C IP-MS; concentration not given; relative to: CYB5R4 KO over parental): 0.71

ESDPISSPY
GFP-positive cells (Jurkat expressing engineered TCR; NFAT-eGFP reporter, fluorescence microscopy; peptide; concentration not given, HLA-A*01:01 on EL4 cells): 2.89%

caspofungin
bilirubin (adult ICU patients, mITT, serum; dose not given, day 4): 17.6 µmol/L

EIDPIQLDY
GFP-positive cells (Jurkat expressing engineered TCR; NFAT-eGFP reporter, fluorescence microscopy; peptide; concentration not given, HLA-A*01:01 on EL4 cells): 3.26%

pregnenolone sulfate
responding cells (MIN6 and INS1 cells; agonist, calcium microfluorimetry; concentration not given, not DTT-treated): 90%

Peginesatide
phosphorylation level (UT7/EPO; tyrosine phosphorylation, LC-MS/MS phosphoproteomics, GluC, item: SLC4A7 tyrosine 44; 10 nM, 15 min, with: 10 U/mL EPO; relative to: vehicle): 3.7 fold

colistin
MIC (Salmonella enterica München; broth microdilution; clinical isolate RKI 419/14): ≤ 0.5 µg/mL

B2 (adiponectin)
mRNA level (HUVEC; real-time PCR, item: ICAM-1; 15 µg/mL, 24 h, unit not given, with: TNF-α and IFN-γ; relative to: stimulated untreated): 0.91 ± 0.28

epoetin alfa
mRNA level (UT7/EPO; RT-qPCR, item: IER3; concentration not given, 90 min, normalized to HPRT1; relative to: vehicle): 5.9 fold

B3
log2 fold change (CYB5R4 knockout human cells; PP4 interaction, 3xFLAG-PP4C IP-MS; concentration not given; relative to: CYB5R4 KO over parental): 1.41

MTVCNASQRQAHAQATAVSL
selectivity ratio (H1648; phage binding; peptide; relative to: targeting over control phage): 4.1 ± 2

human apolipoprotein D
log2 fold change (CYB5R4 knockout human cells; PP4 interaction, 3xFLAG-PP4C IP-MS; concentration not given; relative to: CYB5R4 KO over parental): 3.13

FGA (Homo sapiens, UniProt P02671)
cross-linked residues (SPTBN5 (Homo sapiens, UniProt Q9NRC6); cross-linking MS; with: DSSO): K243 to K2277

PRTARHAPAVRKFSPDLKLLKDVKISVSFTE (DGCR8(96-126), SUMO-tagged)
ΔH (Enhancer of rudimentary homolog (Homo sapiens, UniProt P84090, T18A); DGCR8 peptide binding, ITC; peptide; 293 K): -2.39 ± 0.502 kcal/mol

Polymyxin B
log2 fold change (untargeted LC-MS metabolomics, item: N-formimino-L-glutamate; Sprague-Dawley rat, right cerebral cortex; intracerebroventricular, 0.75 mg/kg, 1 h; relative to: NaCl control): -3.5

B4 (human alpha-actinin-1)
log2 fold change (CYB5R4 knockout human cells; PP4 interaction, 3xFLAG-PP4C IP-MS; concentration not given; relative to: CYB5R4 KO over parental): 0.58

QADPIQTAY
GFP-positive cells (Jurkat expressing engineered TCR; NFAT-eGFP reporter, fluorescence microscopy; peptide; concentration not given, HLA-A*01:01 on EL4 cells): 0.462%

11-deoxycorticosterone
rate constant k-3 (CYP11B2 (human); substrate binding, stopped-flow kinetic modelling; 4-state branched induced-fit model, with: equimolar adrenodoxin): 0.569 min⁻¹

methyl-β-cyclodextrin
cholesterol decrease (HEK293 stably expressing hERG1a; Amplex Red; 1 mM, 2 h, 37 °C): ~52%

GTDHIPYAY
GFP-positive cells (Jurkat expressing engineered TCR; NFAT-eGFP reporter, fluorescence microscopy; peptide; concentration not given, HLA-A*01:01 on EL4 cells): 0.471%

Some of these lines once more:
human epiplakin
log2 fold change (CYB5R4 knockout human cells; PP4 interaction, 3xFLAG-PP4C IP-MS; concentration not given; relative to: CYB5R4 KO over parental): 0.71

ESDPISSPY
GFP-positive cells (Jurkat expressing engineered TCR; NFAT-eGFP reporter, fluorescence microscopy; peptide; concentration not given, HLA-A*01:01 on EL4 cells): 2.89%
